Experimental data pooled from the literature.
Protocols differ between the studies behind these lines. Values joined by “and” are separate records of one study, mostly repeats; a detail may differ.
Target: Mitogen-activated protein kinase kinase kinase kinase 4 (MAP4K4, Homo sapiens, UniProt O95819)
UniProt O95819, sequence (whole entry, looked up): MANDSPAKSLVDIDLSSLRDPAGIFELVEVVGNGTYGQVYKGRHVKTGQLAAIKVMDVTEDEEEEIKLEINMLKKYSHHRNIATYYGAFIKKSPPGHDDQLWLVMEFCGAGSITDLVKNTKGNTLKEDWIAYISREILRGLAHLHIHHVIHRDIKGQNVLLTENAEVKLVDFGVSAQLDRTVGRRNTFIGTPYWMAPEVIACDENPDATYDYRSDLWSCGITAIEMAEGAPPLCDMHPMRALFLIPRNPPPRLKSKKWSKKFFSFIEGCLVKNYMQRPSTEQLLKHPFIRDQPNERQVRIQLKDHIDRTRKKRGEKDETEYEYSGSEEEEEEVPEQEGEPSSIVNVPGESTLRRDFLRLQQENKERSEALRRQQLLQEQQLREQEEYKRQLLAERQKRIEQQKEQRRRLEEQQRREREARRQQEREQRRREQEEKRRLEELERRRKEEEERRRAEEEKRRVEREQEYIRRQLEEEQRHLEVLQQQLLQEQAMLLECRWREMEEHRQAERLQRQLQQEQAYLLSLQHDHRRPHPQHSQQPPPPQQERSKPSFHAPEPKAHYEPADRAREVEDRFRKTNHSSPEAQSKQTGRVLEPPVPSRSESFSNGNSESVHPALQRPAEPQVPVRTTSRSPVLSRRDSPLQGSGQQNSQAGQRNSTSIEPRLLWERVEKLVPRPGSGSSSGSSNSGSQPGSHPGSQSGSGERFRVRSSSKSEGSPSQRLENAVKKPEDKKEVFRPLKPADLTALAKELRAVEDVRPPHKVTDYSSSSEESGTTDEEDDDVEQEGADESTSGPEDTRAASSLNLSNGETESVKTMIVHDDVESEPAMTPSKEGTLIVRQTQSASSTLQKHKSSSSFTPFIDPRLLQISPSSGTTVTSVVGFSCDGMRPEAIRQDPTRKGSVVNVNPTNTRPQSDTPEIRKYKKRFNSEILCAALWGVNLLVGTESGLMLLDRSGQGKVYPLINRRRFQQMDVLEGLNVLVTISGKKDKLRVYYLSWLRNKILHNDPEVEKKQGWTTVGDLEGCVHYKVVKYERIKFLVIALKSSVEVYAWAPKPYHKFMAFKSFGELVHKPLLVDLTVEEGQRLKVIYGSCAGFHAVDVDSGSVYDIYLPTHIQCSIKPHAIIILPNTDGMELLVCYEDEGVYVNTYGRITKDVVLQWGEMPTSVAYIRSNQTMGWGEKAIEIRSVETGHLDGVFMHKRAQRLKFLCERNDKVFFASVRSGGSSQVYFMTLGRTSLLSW

Compound = Cc1cccc(O[C@H]2CCC[C@@H](C(C)CNCc3ccncc3)C2)c1 (relative stereo); test = enzyme activity, inhibitor; conditions = 10 µM; measurement = inhibition; value = -6%
Compound = CCN1CCN(Cc2ccc(C(=O)Nc3ccc(C)c(NCc4cnc5[nH]ccc5c4OC)c3)cc2C(F)(F)F)CC1; test = binding, competition with immobilised ligand; conditions = 1 µM; measurement = remaining binding; value = 0.75%
Compound = Nc1ncc(-c2cc(-c3cnn(CC(F)(F)F)c3)ncc2F)nc1C(=O)NC1CNCC(F)C1 (stereo not drawn); test = enzyme activity; conditions = 1 µM; scale = relative to: DMSO control; measurement = remaining activity; value = 99.4%
Compound = CCN1CCN(Cc2ccc(NC(=O)c3ccc(C)c(NC(=O)c4cncc(-c5cccs5)c4)c3)cc2C(F)(F)F)CC1; test = binding, competition with immobilised ligand; conditions = 1 µM; measurement = remaining binding; value = 7.2%
Compound = C[C@H]1CN(C(=O)c2cn(-c3ccnc(N)n3)c3cc(C#CC4(O)CCCCC4)ccc23)CCN1; test = enzyme activity, inhibitor, FRET; conditions = 1 µM; measurement = inhibition; value = 26%
Compound = CCn1cc(C(=O)O)c(=O)c2c(N)c(F)c(NC3CCCCC3)cc21; test = kinase activity; conditions = 0.1 µM, added: ATP at Km; measurement = inhibition; value = -1.9%
Compound = O=C(Cc1ccc(OCc2ccccc2)cc1)NC1(C(=O)O)CCN(C(=O)c2ccc(-c3cccc(Cl)c3)cc2)CC1; test = enzyme activity, inhibitor; conditions = 10 µM; measurement = activity vs control; value = 102%
Compound = Nc1ncc2c(n1)-c1c([nH]c3ccc(C4=CCOCC4)cc13)CCC2; test = binding, competition with immobilised ligand; conditions = 1 µM; measurement = remaining binding; value = 86%
Compound = C=CC(=O)Nc1cc(-c2nn(C3CCN(CCNC(=O)[C@H](C)CCC45CC6CC(CC(C6)C4)C5)CC3)c3ncnc(N)c23)ccc1Oc1ccccc1; test = inhibitor, KiNativ profiling; system = biochemical; conditions = 2 µM; measurement = inhibition; value = 8.6%
Compound = COc1cc(Nc2nccc(-c3cnn4nc(OC)ccc34)n2)cc(C(F)(F)F)c1; test = binding, competition with immobilised ligand; conditions = 1 µM; measurement = remaining binding; value = 86%
Compound = CNC1C[S+]2CC[S+]3CC[S+](C1)[Ru-4]321([N]=C=S)[n]2c3ccc(OC)cc3c3c4c(c5cc(F)c[n+]1c5c32)C(=O)NC4=O (stereo not drawn); test = KinomeScan; conditions = 0.1 µM; scale = relative to: untreated; measurement = remaining binding; value = 97%
Compound = CC(C)=CC1OC(C)(C)C2C=C3C(=O)C(Cl)=CC(O)C3C3C(O)C4OC4C(=O)C132 (stereo not drawn); test = cell-free assay, competition with immobilised ligand; conditions = 10 µM; measurement = remaining binding; value = 94%
Compound = C=CC(=O)Nc1cccc(-c2cnc3[nH]cc(C(=O)NC(C)(C)C)c3n2)c1; test = kinase activity; conditions = 0.1 µM; measurement = inhibition; value = 28% and 23%
Compound = NC(=O)[C@@H](O)C[C@H]1CCc2sc3ncnc(O[C@H]4CC[C@H](N5CCOCC5)CC4)c3c21; test = enzyme activity, inhibitor; conditions = 10 µM; measurement = inhibition; value = 30%
Compound = COCC12C(=O)NC3C4(C(OC)CC1O)C1CC5(O)C(OC)C(O)C(OC(C)=O)(C1C5OC(=O)c1ccccc1)C3(O)C(OC)C24 (stereo not drawn); test = kinase activity, inhibitor, ProQinase kinase profiling; conditions = 25 µM; scale = relative to: control; measurement = remaining activity; value = 89% and 100%

Excerpt of the above:
Compound = Cc1cccc(O[C@H]2CCC[C@@H](C(C)CNCc3ccncc3)C2)c1 (relative stereo); test = enzyme activity, inhibitor; conditions = 10 µM; measurement = inhibition; value = -6%
Compound = CCN1CCN(Cc2ccc(C(=O)Nc3ccc(C)c(NCc4cnc5[nH]ccc5c4OC)c3)cc2C(F)(F)F)CC1; test = binding, competition with immobilised ligand; conditions = 1 µM; measurement = remaining binding; value = 0.75%
